Results from different studies.
A part holds a random share of what one study measured. Positions count from the first letter of the parent shown.

Study 1
Target: ABI1, truncated, D143A, DHFR fusion (Arabidopsis thaliana)
Technique: DHFR PCA, deep sequencing
Matrix: yeast
Setting: methotrexate growth selection, single substitutions
Together with: (+)-ABA 0.032 µM
Baseline: wild-type fitted maximum
Direction: higher = stronger binding
Starting sequence: PYL1, truncated, DHFR fusion (Arabidopsis thaliana); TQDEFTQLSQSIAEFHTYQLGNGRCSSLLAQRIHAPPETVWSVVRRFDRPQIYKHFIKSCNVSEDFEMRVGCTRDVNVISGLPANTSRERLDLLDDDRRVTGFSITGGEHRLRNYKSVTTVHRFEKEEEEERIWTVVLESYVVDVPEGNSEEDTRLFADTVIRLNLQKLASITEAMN; partner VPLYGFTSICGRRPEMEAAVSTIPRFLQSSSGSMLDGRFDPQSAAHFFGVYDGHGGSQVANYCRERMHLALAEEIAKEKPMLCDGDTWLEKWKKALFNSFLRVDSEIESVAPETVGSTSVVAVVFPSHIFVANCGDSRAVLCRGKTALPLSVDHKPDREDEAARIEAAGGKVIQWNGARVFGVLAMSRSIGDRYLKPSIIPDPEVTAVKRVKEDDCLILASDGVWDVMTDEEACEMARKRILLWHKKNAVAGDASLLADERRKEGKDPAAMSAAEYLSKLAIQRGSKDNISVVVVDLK
| Change | relative binding score [%] |
| --- | --- |
| N61W | 11.5 |
| E129G | 55.2 |
| F47P | -1.17 |
| E125P | 34.8 |
| R49I | -3.19 |
| K58H | 14.3 |
| T119F | -4.36 |
| Y115Q | 2.46 |
| V76P | 0.408 |

Study 2
Target: Histone acetyltransferase KAT6A, both winged helices, GST fusion (KAT6A, Homo sapiens, UniProt Q92794, residues 1-181)
Technique: protein binding microarray
Molecule type: double-stranded DNA, one strand shown
Matrix: in vitro
Tested at: not given
Setting: 8-mer, flanks averaged, mean of 2 arrays, mostly near background
Baseline: not given
Direction: higher = stronger binding
Residues (chain): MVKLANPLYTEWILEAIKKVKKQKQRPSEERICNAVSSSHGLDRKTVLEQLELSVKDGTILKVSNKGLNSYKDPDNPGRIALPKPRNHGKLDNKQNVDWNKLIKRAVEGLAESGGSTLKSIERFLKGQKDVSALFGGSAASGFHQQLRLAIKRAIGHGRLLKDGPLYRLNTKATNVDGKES
| Oligonucleotide | E-score |
| --- | --- |
| ACGGGCCA | 0.0742 |
| ACGTCAGC | 0.073 |
| AACCGCTC | 0.203 |
| ACGCAGCT | 0.0996 |
| CTAGACAG | 0.0157 |
| ATAGGATA | -0.012 |
| GCATGCGC | 0.309 |
| CAGTCGTA | -0.0742 |
| AGGTTGCC | 0.0229 |
| ATGCTCCC | -0.0648 |
| GCAGTAAA | -0.0736 |
| ATGGCGGG | 0.0982 |
| CTATCACA | -0.0865 |

Study 3
Target: RNA binding protein fox-1 homolog 2, RRM domain, GST-SBP tag (RBFOX2, Homo sapiens, UniProt O43251-10, residues 100-194)
Technique: RNA Bind-n-Seq
Molecule type: RNA
Matrix: in vitro
Tested at: 365 nM
Setting: natural RNA segment, single round, ends assumed
Baseline: no-protein control
Direction: higher = stronger binding
Shared flanks, not repeated: GGGAGUUCUACAGUCCGACGAUC … UGGAAUUCUCGGGUGCCAA
Target sequence (chain): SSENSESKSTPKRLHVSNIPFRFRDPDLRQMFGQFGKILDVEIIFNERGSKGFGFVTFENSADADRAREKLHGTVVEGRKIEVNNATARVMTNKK
| Oligonucleotide | RBNS enrichment (R) |
| --- | --- |
| UUUGUUUAAAGCGUGGGGUUUUUUAAUCUCUGCCACCCUUGUCAAGGGAGUCUUGUAAAGUUGCCGAGGGUAGGUUCAUCUCCAGGUUUCGGGAUUCCCAUCCGUCCUGG | 0.301 |
| UAUAGUUAUUUUCUACACAUGCCAACACACAUGAUGAUAAAGGAACCUUUUCUAGGAGGCAUUGCAGGGUUUCAAUACACAGGACAUGUUCUAGUUACAGAAGCCUUGCU | 0.235 |
| UGAGCGUGGAGUUGCCGUUCUGUGCACUGAUAAAGCUAGACUUUUCUCCAGUCCUCUUUCUGGAAUAGGAAACUCCCAAUAUUUAACCUUCAUUCAUCCUUAACGGUGUG | 0.34 |
| CAGCCCAAAAGACGGGAAGAGGAGGCCUUUGGCUGCUUGUGUUGACAGCUUAAAGGGGUCUACACCCUCAACUUGCUUAAGUGCCCUCUGCUGAUAGCCAGGAAGGAGGG | 0.487 |
| GUCCGGAGGAGCAGCUUCGUGCUGCGCGAACUUUAGCAGGAGGACCGAUGAUUAGCAUUUAUGAUGCAGAGACAGAACAACUUCGUAUAGGACCGUACUCCUGGACACCA | 0.366 |
| CAAGUUACAUGUGAAUUUGUUUGGUGAAGAAGGGAAGCUGGGAUGGUAACAGAGCGUCACCACAUAGGAUGUGCCAUUAUCUAGCUAAAGUCAUUCCUUCCUUCCUUCUG | 0.35 |
| CAACAGUUCUCACUGCCUGGCCUUUGGAAGGUCACUUAACAUUUGUUGUUGUUUUGUUUUGUUUUUUGUUUUGCUUUUGCGGUAACUGCACCACUAUGAAACAUUGACUU | 0.302 |
| ACCUUCCCCUUGGCGAUCGCUCGGGUUUGUGUUAAGUUAAUCUGUAUGUCCUGUCUGCCAGCGUUCCCUGUACUAUAGGCCUGUGUAUAGUGUAGGGCAGAGCGUUGACC | 1.22 |
| CCUAGGUGACAUUUUUAGAAUUAAUACUUAAAUGUUAAACAGGGGGAAAUGAAGCUUAAUCAUGGUCAGGUUUGAGAUCUUUUGCAGUGAAAUAAUUUUAUUUAAUAUAA | 0.973 |
| CAGCUGGAGCUGAAGGCUCGAUCUUGUGAACCCCUAAAUCCGCUCCCUCCUAACAGCACGGAUUCUCUUGGGGCUCUUCUUCAGGGAAGAGUAGGGACGCCGUUCCAGCC | 0.273 |
| CUAGAAUAGCCAGUAUUUAUGUUUUUUAUAAAACUGUGCAAUACAAAUUAUGCAAUCACCAUAACUUUGUAACUCCUGAGUGUCCUAAGGGAGUACACAUCUUUGAAGCU | 0.427 |
| CGCGUCUUUGACGGUGGGUGUCCCAUUUUUAUCCGCUACUCUUUAUUUCAUGGAGUCGUAUCAACGCUAUGAACGCAAGGCUGUGAUAUGGAACCAGAAGGCUGUCUGAA | 0.377 |

Mixed results
| Molecule | target | assay | test system | setting | scale | quantity | value |
| --- | --- | --- | --- | --- | --- | --- | --- |
| PhoQ, residues 284 288 289 292 302 303 ALASRC | PhoP, residues 12 14 15 18 19 VQGLL (Escherichia coli, UniProt P23836) | Sort-seq, refers to: YFP reporter | E. coli | PhoQ-PhoP variant library, together with: 10 µM Mg2+ | baseline: high Mg2+ state, higher = stronger signaling | fold induction | 12.2 |

A few entries again (study 3):
| Oligonucleotide | RBNS enrichment (R) |
| --- | --- |
| CAAGUUACAUGUGAAUUUGUUUGGUGAAGAAGGGAAGCUGGGAUGGUAACAGAGCGUCACCACAUAGGAUGUGCCAUUAUCUAGCUAAAGUCAUUCCUUCCUUCCUUCUG | 0.35 |
| UUUGUUUAAAGCGUGGGGUUUUUUAAUCUCUGCCACCCUUGUCAAGGGAGUCUUGUAAAGUUGCCGAGGGUAGGUUCAUCUCCAGGUUUCGGGAUUCCCAUCCGUCCUGG | 0.301 |
| CAACAGUUCUCACUGCCUGGCCUUUGGAAGGUCACUUAACAUUUGUUGUUGUUUUGUUUUGUUUUUUGUUUUGCUUUUGCGGUAACUGCACCACUAUGAAACAUUGACUU | 0.302 |
| ACCUUCCCCUUGGCGAUCGCUCGGGUUUGUGUUAAGUUAAUCUGUAUGUCCUGUCUGCCAGCGUUCCCUGUACUAUAGGCCUGUGUAUAGUGUAGGGCAGAGCGUUGACC | 1.22 |
| CAGCUGGAGCUGAAGGCUCGAUCUUGUGAACCCCUAAAUCCGCUCCCUCCUAACAGCACGGAUUCUCUUGGGGCUCUUCUUCAGGGAAGAGUAGGGACGCCGUUCCAGCC | 0.273 |
| UGAGCGUGGAGUUGCCGUUCUGUGCACUGAUAAAGCUAGACUUUUCUCCAGUCCUCUUUCUGGAAUAGGAAACUCCCAAUAUUUAACCUUCAUUCAUCCUUAACGGUGUG | 0.34 |
